Measured values collected from several papers.
Lines come from different studies, so protocols differ. Values joined by “and” are separate records of one study, mostly repeats; a detail may differ. Numbers after ± are the reported error.
Ahr: Aryl hydrocarbon receptor (Ahr, Rattus norvegicus, UniProt P41738)
uncharacterized protein: uncharacterized protein (Anopheles coluzzii, UniProt A0A6E8VQK1)
CAMK2G: Calcium/calmodulin-dependent protein kinase type II subunit gamma (CAMK2G, Homo sapiens, UniProt Q13555)

Structure (SMILES)	target	test	system	conditions	how to read	endpoint	value
[2H]c1c([2H])c([C@]2([2H])CCCN2C(=O)C(C)(C)Oc2ccc3cn[nH]c3c2)c([2H])c([2H])c1C([2H])([2H])[2H]	PKMYT1 (Homo sapiens, UniProt Q99640)	KINOMEscan		1 µM	relative to: DMSO control	remaining binding	55%
O=C(NO)[C@H]1COC(c2c[nH]c3ccc(F)cc23)=N1	UDP-3-O-acyl-N-acetylglucosamine deacetylase (Pseudomonas aeruginosa, UniProt P47205, C40S)	ITC		concentration not given, 298 K		-TΔS of binding	-7.74 kcal/mol
O=C(c1ccc(Cl)cc1)N1CCN2C(=O)N(OC(=O)N3CCOc4ccccc43)C(=O)C2C1 (stereo not drawn)	Acyl-protein thioesterase 1 (Homo sapiens, UniProt O75608)	MS-based ABPP	SW-620 conditioned medium	10 µM, 1 h, 37 °C	relative to: compound over DMSO, lower = more inhibition	median protein ratio	0.98
O=C(Nc1cnccc1Cl)N1CCN(Cc2ccc3c(c2)OC(F)(F)O3)CC1	MAPKAPK5 (Homo sapiens, UniProt Q8IW41)	kinase activity, inhibitor		10 µM, together with: PRAK peptide substrate		inhibition	-11%
c1ccc2c(c1)cc1ccc3cccc4ccc2c1c34	Ahr	agonist, CALUX reporter	H4IIE	0.000126 µg/mL		agonist response	27.9%
Nc1nc2c(ncn2[C@@H]2O[C@@H]3COP(=O)(O)O[C@H]4[C@@H](O)[C@H](n5cnc6c(=O)[nH]c(N)nc65)O[C@@H]4COP(=O)(O)O[C@H]3[C@H]2O)c(=O)[nH]1	Cell cycle histidine kinase CckA, cytoplasmic region (Caulobacter vibrioides, UniProt Q9X688)	isothermal titration calorimetry		concentration not given, together with: ADP 5 mM		binding entropy (ΔS)	43.9 cal/mol/deg
O=P(O)(O)OC[C@H]1C[C@@](O)(CO)[C@@H](O)[C@H](O)[C@@H]1O	2-epi-valiolone synthase (Actinosynnema mirum, UniProt C6WFL3)	phosphate release		150 µM		apparent Vmax	1.8 ± 0.3 µM/min
Oc1ccc(/C=C/c2cc(O)cc(O)c2)cc1	O-methyltransferase (Sorghum bicolor, UniProt A0A1B6PFV1, W279A)	isothermal titration calorimetry		concentration not given, SFG+		binding stoichiometry N	0.97 ± 0.019 sites
CC1(C)[C@H](C(=O)O[C@H](C#N)c2cccc(Oc3ccccc3)c2)[C@@H]1C=C(Br)Br	uncharacterized protein	enzyme activity, inhibitor	Sf9 cell homogenate	45.45 µM, 0.1667 h, together with: α-naphthyl acetate substrate	relative to: no inhibitor	remaining activity	98.7%
C[C@@H](O)[C@H](NC(=O)[C@H](Cc1ccccc1)NC(=O)[C@H](Cc1ccccc1)NC(=O)[C@H](CC(=O)O)NC(=O)[C@H](CC(=O)O)NC(=O)[C@H](Cc1c[nH]c2ccccc12)NC(=O)[C@H](CO)NC(=O)[C@@H](N)CCCCN)C(=O)N[C@@H](CCCNC(=N)N)C(=O)O	Epithelial sodium channel subunit alpha (Homo sapiens, UniProt P37088)	binding, bio-layer interferometry				kon	159 M⁻¹ s⁻¹
CC(=O)C(c1ccccc1)c1ccccc1	Nuclear receptor subfamily 1 group I member 3 (Homo sapiens, UniProt Q14994)			concentration not given		activity	inactive
CC[C@H](C)[C@H](NC(=O)CNC(=O)[C@@H](N)CCCCN)C(=O)N[C@@H](CC(C)C)C(=O)N[C@@H](CCCCN)C(=O)N[C@@H](CCCNC(=N)N)C(=O)N[C@@H](CCC(=O)O)C(=O)N[C@@H](CCCCN)C(=O)N[C@@H](CCCNC(=N)N)C(=O)N[C@@H](CC(C)C)C(=O)N[C@@H](CCCNC(=N)N)C(=O)N[C@@H](CCCNC(=N)N)C(=O)N[C@@H](CCCCN)C(=O)N[C@@H](CC(N)=O)C(=O)N[C@H](C(=O)N[C@@H](Cc1c[nH]cn1)C(=O)N[C@@H](Cc1c[nH]c2ccccc12)C(=O)N1CCC[C@H]1C(=O)N[C@@H](CCC(=O)O)C(=O)N[C@@H](CCC(=O)O)C(=O)NCC(=O)N[C@@H](CCCCN)C(=O)N[C@@H](CC(C)C)C(=O)N[C@@H](CCCNC(=N)N)C(=O)N[C@@H](CCC(=O)O)C(=O)N[C@@H](Cc1ccccc1)C(=O)N[C@@H](Cc1ccccc1)C(=O)N[C@@H](Cc1ccccc1)C(=O)N[C@@H](Cc1ccccc1)C(=O)N[C@@H](CCC(=O)O)C(=O)N[C@@H](CC(C)C)C(=O)N[C@@H](CC(=O)O)C(=O)N[C@@H](CCC(=O)O)C(=O)N[C@@H](C)C(=O)N[C@@H](CCC(=O)O)C(=O)N[C@@H](CCCNC(=N)N)C(=O)N[C@H](C(=O)N[C@@H](CC(N)=O)C(=O)N[C@H](C(=O)O)C(C)C)C(C)C)C(C)C	PPP1CA (Homo sapiens, UniProt P62136)	ITC		concentration not given, 25 °C, PP1α 7-330		ΔG of binding	-11.3 ± 0.1 kcal/mol
COc1cc(C(=O)N2CC[C@@H](O)[C@@H](N)C2)cc2nc(-c3cc4ccccc4n3CC3CC3)n(C)c12	PADI3 (Homo sapiens, UniProt Q9ULW8)	enzyme activity, cell lysate	HEK293 expressing PADI3	100 µM, together with: calcium 2 mM		citrullination	no effect
C[C@]12CC[C@H]3[C@@H](CCC4=CC(=O)CC[C@@]43C)[C@@H]1CC[C@@H]2C(=O)CO	CYP11B2 (Homo sapiens, UniProt P19099, A320V)	substrate				k-1	0.55 ± 0.06 s⁻¹
Nc1ncc(-c2nc(N3CCOCC3)nc(N3CCOCC3)n2)c(C(F)F)n1	NEK3 (Homo sapiens, UniProt P51956)	KINOMEscan		10 µM		remaining binding	78%
c1ccc2c(c1)cc1ccc3cccc4ccc2c1c34	Ahr	reporter gene, agonist	H4IIE-luc rat hepatoma cells	0.2 to 50 nM		EC20	2.3 log fmol/well
CNC(=O)Oc1cccc2c1OC(C)(C)O2	uncharacterized protein	enzyme activity, inhibitor	Sf9 cell homogenate	1.163 µM, 0.1667 h, together with: α-naphthyl acetate substrate	relative to: no inhibitor	remaining activity	95.4%

Structure (SMILES)	target	test	system	conditions	how to read	endpoint	value
CN(C(=O)n1cnc(-c2ccc[n+]([O-])c2)c1)C1CCCCC1	MAOA (Homo sapiens, UniProt P21397)	enzyme activity, inhibitor		10 µM, human, together with: kynuramine substrate		inhibition	0%
COc1ccc(CC2NCCc3cc(OC)c(OC)cc32)cc1OC (stereo not drawn)	DCLRE1A (Homo sapiens, UniProt Q6PJP8)	exonuclease activity, inhibitor, fluorescence HTS		10 µM, 80 min, together with: 8 nM 5P-FQ substrate		remaining activity	20%
O=C(O)CC(=O)O	matB (Rhodopseudomonas palustris, UniProt Q6ND88, C106A/K488A/Q457C/R286C)	binding, intrinsic fluorescence		1 mM, 1 µM matB, 10 mM MgCl2		fluorescence ratio F+/F-	0.94
Cc1c(-c2cccnc2)c2ccccc2n1CCCCC(=O)O	FABP4 (Homo sapiens, UniProt P15090)	binding, affinity selection mass spectrometry		100 nM, pooled screen	relative to: other proteins	fold change	43
COc1cc(N)c(Cl)cc1C(=O)NC1CN2CCC1CC2 (stereo not drawn)	GPR35 (Homo sapiens, UniProt Q9HC97)	β-arrestin recruitment, TANGO luminescence		concentration not given	relative to: basal luminescence	log2 fold change	-0.138
CC(CCn1ccc(-c2ccc(-c3cn(Cc4ccccc4)nn3)cc2)cc1=O)(C(=O)NO)S(C)(=O)=O (stereo not drawn)	UDP-3-O-acyl-N-acetylglucosamine deacetylase (Pseudomonas aeruginosa, UniProt P47205)	fluorescence		37 °C		residence time	57.3 min and 57 min
O=C(Nc1cccnn1)N1CCC(=Cc2cccc(Oc3ccc(C(F)(F)F)cn3)c2)CC1	ESR2 (Homo sapiens, UniProt Q92731)	radioligand binding		10 µM, together with: [3H]estradiol		inhibition of binding	-5%
COc1ccc(N2C(=O)N(c3c(C)cccc3Cl)Cc3cnc(Nc4ccc(C5CCN(C)CC5)cc4OC)nc32)nc1	CAMK2G	kinase activity		0.5 µM		inhibition	9%
COc1ncccc1-c1cnn2ccc(N3CCN(C(=O)OC(C)C)CC3)nc12	CDK19 (Homo sapiens, UniProt Q9BWU1)	KINOMEscan binding		1 µM	relative to: untreated control	remaining binding	60%
CCCCCCCCCCCCCC[N+](C)(C)C	Sodium channel protein type 4 alpha, BTX-activated (Oryctolagus cuniculus, UniProt G1SLL9)					k-1	14.5 s⁻¹
O=C1[C@H]2CCCN2[C@H](c2ccc3c(c2)OCO3)N1c1ccc(Cl)c(Cl)c1 (mixture of isomers)	CAMK2G	ADP-Glo		100 µM	relative to: vehicle	kinase activity	no effect
O=C(O)COP(=O)(O)O	TPI1 (Saccharomyces cerevisiae, UniProt P00942, Y208A)	enzyme activity, competitive inhibitor, GPDH/NADH-coupled		pH 5.7, 25 °C, ionic strength 0.1 NaCl, together with: glyceraldehyde 3-phosphate substrate	relative to: mutant over wild type	Ki ratio	64
CN1CCN(c2cc(-c3ccncc3)c(-c3ccc4ccccc4c3)nn2)CC1	MRGPRX2 (Homo sapiens, UniProt Q96LB1)	agonist, FLIPR		12.5 µM		activation	5.1%
O=C(Cc1cccs1)N[C@@H]1C(=O)N2C(C(=O)O)=C(/C=C/c3ccc([N+](=O)[O-])cc3[N+](=O)[O-])CS[C@H]12	blaNDM-1 (Klebsiella pneumoniae, UniProt C7C422, C208S)	substrate, steady-state kinetics				kcat	4.1 ± 0.2 s⁻¹
C[C@H]1CN(c2n[nH]c3nc(N[C@H]4CC[C@H](NS(=O)(=O)CCC(F)(F)F)CC4)ncc23)CCO1	Stalled ribosome sensor GCN1 (Homo sapiens, UniProt Q92616)	Kinobeads competition, measured: GCN1L1		0.032 µM, unit not given	relative to: vehicle	remaining binding	0.91
COc1cc(Nc2ncc(F)c(Nc3ccc4c(n3)NC(=O)C(C)(C)O4)n2)cc(OC)c1OC	MYLK (Homo sapiens, UniProt Q15746)	KINOMEscan		10 µM		inhibition	54%

Repeated from above:
Structure (SMILES)	target	test	system	conditions	how to read	endpoint	value
O=C(Nc1cnccc1Cl)N1CCN(Cc2ccc3c(c2)OC(F)(F)O3)CC1	MAPKAPK5 (Homo sapiens, UniProt Q8IW41)	kinase activity, inhibitor		10 µM, together with: PRAK peptide substrate		inhibition	-11%
c1ccc2c(c1)cc1ccc3cccc4ccc2c1c34	Ahr	agonist, CALUX reporter	H4IIE	0.000126 µg/mL		agonist response	27.9%
